# Assay results collected from several papers.
# Chains of the proteins cited; added tags and fusions are not shown. Lines headed by an entry give the natural chain unless they say otherwise; changes in a name come on top.
# UniProt P9WGR1, whole entry: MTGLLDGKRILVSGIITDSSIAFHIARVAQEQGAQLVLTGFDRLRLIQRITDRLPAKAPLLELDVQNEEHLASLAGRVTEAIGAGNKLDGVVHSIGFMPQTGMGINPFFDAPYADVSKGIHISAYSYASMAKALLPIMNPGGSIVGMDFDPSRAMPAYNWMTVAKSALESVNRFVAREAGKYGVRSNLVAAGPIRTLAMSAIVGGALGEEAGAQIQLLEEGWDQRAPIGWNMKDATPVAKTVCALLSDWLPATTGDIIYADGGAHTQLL
# UniProt P06241, whole entry, looked up: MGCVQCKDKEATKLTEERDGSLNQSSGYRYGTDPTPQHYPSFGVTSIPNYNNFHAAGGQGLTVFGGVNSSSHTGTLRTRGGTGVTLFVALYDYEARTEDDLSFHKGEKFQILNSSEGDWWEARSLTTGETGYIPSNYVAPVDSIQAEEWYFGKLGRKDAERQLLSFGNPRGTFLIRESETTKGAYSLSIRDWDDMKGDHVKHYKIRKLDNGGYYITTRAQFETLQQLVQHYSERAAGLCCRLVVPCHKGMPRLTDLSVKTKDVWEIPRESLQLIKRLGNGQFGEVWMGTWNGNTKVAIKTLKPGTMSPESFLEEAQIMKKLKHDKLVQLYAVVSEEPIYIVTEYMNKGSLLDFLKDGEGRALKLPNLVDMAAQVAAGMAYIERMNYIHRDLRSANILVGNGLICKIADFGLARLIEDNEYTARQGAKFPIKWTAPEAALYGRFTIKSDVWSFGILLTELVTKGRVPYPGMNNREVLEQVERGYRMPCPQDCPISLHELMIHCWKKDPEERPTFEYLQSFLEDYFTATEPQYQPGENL
# UniProt P06241, whole entry M250P/L253P/T254P, looked up: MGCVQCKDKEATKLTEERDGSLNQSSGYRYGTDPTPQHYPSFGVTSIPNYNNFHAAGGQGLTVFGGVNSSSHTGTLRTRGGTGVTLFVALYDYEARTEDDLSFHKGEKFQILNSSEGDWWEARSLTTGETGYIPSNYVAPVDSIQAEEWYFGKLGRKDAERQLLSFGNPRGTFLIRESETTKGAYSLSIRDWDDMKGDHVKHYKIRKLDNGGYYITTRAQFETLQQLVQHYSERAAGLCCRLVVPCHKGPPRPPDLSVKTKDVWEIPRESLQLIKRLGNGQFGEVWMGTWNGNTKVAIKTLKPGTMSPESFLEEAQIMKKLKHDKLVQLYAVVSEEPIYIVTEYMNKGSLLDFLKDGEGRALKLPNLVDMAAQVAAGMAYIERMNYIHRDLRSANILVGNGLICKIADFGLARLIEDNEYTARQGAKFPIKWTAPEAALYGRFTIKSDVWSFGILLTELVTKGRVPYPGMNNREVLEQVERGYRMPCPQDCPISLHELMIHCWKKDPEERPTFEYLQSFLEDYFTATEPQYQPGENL
# UniProt P9WNX1, whole entry: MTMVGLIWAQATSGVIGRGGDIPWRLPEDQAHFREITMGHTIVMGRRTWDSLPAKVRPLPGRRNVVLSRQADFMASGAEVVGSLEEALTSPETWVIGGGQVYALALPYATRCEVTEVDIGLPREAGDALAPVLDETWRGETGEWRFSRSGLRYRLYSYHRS
# UniProt P9WPP7, whole entry: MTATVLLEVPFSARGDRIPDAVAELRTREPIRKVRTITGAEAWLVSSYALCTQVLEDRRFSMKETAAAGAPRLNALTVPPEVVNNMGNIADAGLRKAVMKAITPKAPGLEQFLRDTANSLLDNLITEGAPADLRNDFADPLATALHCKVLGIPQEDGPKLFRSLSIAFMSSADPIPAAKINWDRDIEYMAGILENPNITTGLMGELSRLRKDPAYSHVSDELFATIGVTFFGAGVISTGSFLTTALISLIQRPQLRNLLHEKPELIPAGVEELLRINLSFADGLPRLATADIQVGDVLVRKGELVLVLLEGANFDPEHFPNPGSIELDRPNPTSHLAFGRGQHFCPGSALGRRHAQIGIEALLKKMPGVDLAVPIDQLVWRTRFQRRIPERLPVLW
# UniProt P41143, whole entry: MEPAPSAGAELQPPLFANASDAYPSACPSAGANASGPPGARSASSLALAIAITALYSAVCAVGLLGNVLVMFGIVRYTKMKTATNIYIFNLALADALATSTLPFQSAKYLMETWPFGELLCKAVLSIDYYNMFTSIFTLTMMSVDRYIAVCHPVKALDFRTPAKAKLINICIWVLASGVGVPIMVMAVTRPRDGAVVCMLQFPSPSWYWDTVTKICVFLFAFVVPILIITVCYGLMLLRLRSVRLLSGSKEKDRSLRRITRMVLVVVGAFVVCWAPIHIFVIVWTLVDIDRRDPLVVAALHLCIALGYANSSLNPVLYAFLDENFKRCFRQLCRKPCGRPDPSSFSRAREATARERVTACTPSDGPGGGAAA
# UniProt P28223, whole entry: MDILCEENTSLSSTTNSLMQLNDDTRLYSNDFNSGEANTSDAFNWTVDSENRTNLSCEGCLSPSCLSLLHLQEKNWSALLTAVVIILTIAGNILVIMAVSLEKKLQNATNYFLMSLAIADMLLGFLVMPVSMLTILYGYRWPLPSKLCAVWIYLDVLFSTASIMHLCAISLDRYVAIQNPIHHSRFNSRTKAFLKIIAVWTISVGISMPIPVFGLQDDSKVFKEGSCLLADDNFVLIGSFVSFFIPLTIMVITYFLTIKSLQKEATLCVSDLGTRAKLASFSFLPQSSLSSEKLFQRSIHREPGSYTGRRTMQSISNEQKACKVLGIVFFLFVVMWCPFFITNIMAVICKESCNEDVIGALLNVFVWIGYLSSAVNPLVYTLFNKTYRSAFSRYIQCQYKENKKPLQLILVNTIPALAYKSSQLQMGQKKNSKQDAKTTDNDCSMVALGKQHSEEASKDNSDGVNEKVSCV
# UniProt P22303, whole entry, looked up: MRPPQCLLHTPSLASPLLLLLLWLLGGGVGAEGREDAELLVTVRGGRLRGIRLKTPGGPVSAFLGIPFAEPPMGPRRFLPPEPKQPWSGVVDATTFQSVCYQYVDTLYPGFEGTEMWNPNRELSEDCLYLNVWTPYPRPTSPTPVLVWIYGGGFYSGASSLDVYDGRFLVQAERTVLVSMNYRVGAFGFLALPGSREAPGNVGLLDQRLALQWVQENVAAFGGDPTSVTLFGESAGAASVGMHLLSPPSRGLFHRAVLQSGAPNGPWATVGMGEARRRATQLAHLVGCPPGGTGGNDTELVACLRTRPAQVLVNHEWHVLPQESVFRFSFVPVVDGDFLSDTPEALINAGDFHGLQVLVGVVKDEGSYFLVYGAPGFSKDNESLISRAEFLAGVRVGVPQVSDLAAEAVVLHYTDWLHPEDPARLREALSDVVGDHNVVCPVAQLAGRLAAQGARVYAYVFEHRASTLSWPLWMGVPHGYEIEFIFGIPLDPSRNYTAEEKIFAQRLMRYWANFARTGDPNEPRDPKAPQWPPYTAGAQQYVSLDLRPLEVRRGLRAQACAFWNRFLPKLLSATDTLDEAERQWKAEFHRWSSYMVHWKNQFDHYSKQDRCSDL
# Lines come from different studies, so protocols differ. Numbers after ± are the reported error.
# inhA: Enoyl-[acyl-carrier-protein] reductase [NADH] (inhA, Mycobacterium tuberculosis, UniProt P9WGR1)
# FYN G531I/P530I/Q529E: Tyrosine-protein kinase Fyn (FYN, Homo sapiens, UniProt P06241, G531I/P530I/Q529E)
# folA: Dihydrofolate reductase (folA, Mycobacterium tuberculosis, UniProt P9WNX1)
# cyp121: Mycocyclosin synthase (cyp121, Mycobacterium tuberculosis, UniProt P9WPP7)
SMILES,target,test,test system,conditions,measurement,value
N#Cc1ccccc1Oc1ccc(Cn2cc(C3CCCC3)nn2)cc1O,inhA,"enzyme activity, slow-onset inhibitor",,"20 °C, initial EI complex",Ki,83000 ± 17000 nM
Nc1ncnc2c1c(-c1cnc3[nH]ccc3c1)nn2C1CCCC1,FYN G531I/P530I/Q529E,inhibitor,,,Ki,59 nM
CN(Cc1cnc2nc(N)nc(N)c2n1)c1ccc(C(=O)N[C@@H](CCC(=O)NCCO)C(=O)NCCO)cc1,folA,,,,Ki,98.8 ± 18.2 nM
N#Cc1ccccc1Oc1ccc(Cn2cc(C3CC3)nn2)cc1O,inhA,"enzyme activity, slow-onset inhibitor",,"20 °C, initial EI complex",Ki,99000 ± 16000 nM
CN1CC[C@]23c4c5ccc(O)c4O[C@H]2c2ncc(-c4ccc(Cl)cc4)cc2C[C@@]3(OCCCc2ccccc2)[C@H]1C5,"OPRD1 (Homo sapiens, UniProt P41143)",binding,CHO membranes,,Ki,5.1 ± 1.6 nM
N#Cc1ccccc1Oc1ccc(Cn2cc(C3CCCCC3)nn2)cc1O,inhA,"enzyme activity, slow-onset inhibitor",,"20 °C, final EI* complex",Ki,190 ± 37 nM
CC(C)n1nc(-c2ccc3cc(OCc4cccc(Cl)c4)ccc3c2)c2c(N)ncnc21,"FYN (Homo sapiens, UniProt P06241, G534I/P533E/Q532E)",inhibitor,,,Ki,360 nM
Cc1ccccc1Oc1ccc(Cn2cc(C3CC3)nn2)cc1O,inhA,"enzyme activity, slow-onset inhibitor",,"20 °C, final EI* complex",Ki,70 ± 14 nM
C#CCOCCC(=O)N[C@H](Cc1ccccc1)C(=O)N[C@@H](Cc1ccccc1)C(=O)N[C@@H](CCCNC(N)=O)C(=O)CCl,"Replicase polyprotein 1ab, main protease (rep, Severe acute respiratory syndrome coronavirus 2, UniProt P0DTD1)","enzyme activity, inhibitor",,,Ki,200 ± 50 nM
CC(C)n1nc(-c2ccc3c(c2)OCO3)c2c(N)ncnc21,"FYN (Homo sapiens, UniProt P06241, L253P/M250P/T254P)",inhibitor,,,Ki,120 nM
COC(=O)CC[C@H](NC(=O)c1ccc(N(C)Cc2cnc3nc(N)nc(N)c3n2)cc1)C(=O)OC,folA,,,,Ki,193 ± 15.2 nM
CNC(C)C(=O)c1ccc(Br)cc1 (racemic),"HTR2A (Homo sapiens, UniProt P28223)",,,together with: [3H]ketanserin,Ki,6300 nM
CC(C)(C)c1cc[n+](CCCCCCCC[n+]2ccc(C(C)(C)C)cc2)cc1,"ACHE (Homo sapiens, UniProt P22303)","enzyme activity, inhibitor",,,Ki,90 nM
CCC(c1ccc(-c2ccsc2)cc1)n1ccnc1 (centres unmarked),cyp121,binding,,,Kd,18300 ± 1700 nM
CC(C)n1nc(-c2ccc3cc(OCc4ccccc4)ccc3c2)c2c(N)ncnc21,FYN G531I/P530I/Q529E,inhibitor,,,Ki,24 nM
Oc1cc(Cn2cc(C3CC3)nn2)ccc1Oc1ccccc1Cl,inhA,"enzyme activity, slow-onset inhibitor",,"20 °C, initial EI complex",Ki,16000 ± 10000 nM
CCC(c1ccc(-c2ccc(F)cc2F)cc1)n1ccnc1 (centres unmarked),cyp121,binding,,,Kd,8700 ± 1200 nM

# A few entries again:
SMILES,target,test,test system,conditions,measurement,value
CC(C)n1nc(-c2ccc3cc(OCc4cccc(Cl)c4)ccc3c2)c2c(N)ncnc21,"FYN (Homo sapiens, UniProt P06241, G534I/P533E/Q532E)",inhibitor,,,Ki,360 nM
Cc1ccccc1Oc1ccc(Cn2cc(C3CC3)nn2)cc1O,inhA,"enzyme activity, slow-onset inhibitor",,"20 °C, final EI* complex",Ki,70 ± 14 nM
